# Experimental data of several laboratories.
# Each numbered part is a random draw from the data of one study; scales do not carry over between parts.
# UniProt P42336, sequence (whole entry, unmodified, looked up): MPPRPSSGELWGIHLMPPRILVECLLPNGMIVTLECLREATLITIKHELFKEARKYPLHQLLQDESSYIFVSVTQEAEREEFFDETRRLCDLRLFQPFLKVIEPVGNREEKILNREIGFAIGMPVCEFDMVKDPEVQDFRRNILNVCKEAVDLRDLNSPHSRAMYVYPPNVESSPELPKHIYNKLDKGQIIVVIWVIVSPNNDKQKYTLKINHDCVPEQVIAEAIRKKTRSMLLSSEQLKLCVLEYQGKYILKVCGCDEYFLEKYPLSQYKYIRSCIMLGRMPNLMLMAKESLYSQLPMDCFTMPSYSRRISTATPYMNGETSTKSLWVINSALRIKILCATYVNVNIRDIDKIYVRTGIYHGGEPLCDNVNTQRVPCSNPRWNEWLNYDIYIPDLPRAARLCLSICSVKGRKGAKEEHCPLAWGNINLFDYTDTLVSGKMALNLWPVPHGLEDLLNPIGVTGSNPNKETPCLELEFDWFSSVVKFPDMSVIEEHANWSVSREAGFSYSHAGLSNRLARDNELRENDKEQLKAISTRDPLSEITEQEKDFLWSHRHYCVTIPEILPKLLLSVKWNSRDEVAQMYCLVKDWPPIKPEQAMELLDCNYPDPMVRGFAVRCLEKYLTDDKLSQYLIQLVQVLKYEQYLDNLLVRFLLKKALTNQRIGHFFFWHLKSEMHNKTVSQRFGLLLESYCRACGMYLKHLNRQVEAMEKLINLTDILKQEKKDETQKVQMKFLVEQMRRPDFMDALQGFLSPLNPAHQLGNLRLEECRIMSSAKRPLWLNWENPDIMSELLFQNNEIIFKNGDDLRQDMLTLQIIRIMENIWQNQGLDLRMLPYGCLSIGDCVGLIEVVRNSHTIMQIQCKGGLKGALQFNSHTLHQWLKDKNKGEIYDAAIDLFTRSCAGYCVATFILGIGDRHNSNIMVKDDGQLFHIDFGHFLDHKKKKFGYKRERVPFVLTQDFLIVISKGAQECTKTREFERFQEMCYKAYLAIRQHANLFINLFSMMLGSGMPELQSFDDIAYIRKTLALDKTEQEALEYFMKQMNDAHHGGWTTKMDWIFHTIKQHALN
# UniProt Q96PY6, sequence (whole entry, looked up): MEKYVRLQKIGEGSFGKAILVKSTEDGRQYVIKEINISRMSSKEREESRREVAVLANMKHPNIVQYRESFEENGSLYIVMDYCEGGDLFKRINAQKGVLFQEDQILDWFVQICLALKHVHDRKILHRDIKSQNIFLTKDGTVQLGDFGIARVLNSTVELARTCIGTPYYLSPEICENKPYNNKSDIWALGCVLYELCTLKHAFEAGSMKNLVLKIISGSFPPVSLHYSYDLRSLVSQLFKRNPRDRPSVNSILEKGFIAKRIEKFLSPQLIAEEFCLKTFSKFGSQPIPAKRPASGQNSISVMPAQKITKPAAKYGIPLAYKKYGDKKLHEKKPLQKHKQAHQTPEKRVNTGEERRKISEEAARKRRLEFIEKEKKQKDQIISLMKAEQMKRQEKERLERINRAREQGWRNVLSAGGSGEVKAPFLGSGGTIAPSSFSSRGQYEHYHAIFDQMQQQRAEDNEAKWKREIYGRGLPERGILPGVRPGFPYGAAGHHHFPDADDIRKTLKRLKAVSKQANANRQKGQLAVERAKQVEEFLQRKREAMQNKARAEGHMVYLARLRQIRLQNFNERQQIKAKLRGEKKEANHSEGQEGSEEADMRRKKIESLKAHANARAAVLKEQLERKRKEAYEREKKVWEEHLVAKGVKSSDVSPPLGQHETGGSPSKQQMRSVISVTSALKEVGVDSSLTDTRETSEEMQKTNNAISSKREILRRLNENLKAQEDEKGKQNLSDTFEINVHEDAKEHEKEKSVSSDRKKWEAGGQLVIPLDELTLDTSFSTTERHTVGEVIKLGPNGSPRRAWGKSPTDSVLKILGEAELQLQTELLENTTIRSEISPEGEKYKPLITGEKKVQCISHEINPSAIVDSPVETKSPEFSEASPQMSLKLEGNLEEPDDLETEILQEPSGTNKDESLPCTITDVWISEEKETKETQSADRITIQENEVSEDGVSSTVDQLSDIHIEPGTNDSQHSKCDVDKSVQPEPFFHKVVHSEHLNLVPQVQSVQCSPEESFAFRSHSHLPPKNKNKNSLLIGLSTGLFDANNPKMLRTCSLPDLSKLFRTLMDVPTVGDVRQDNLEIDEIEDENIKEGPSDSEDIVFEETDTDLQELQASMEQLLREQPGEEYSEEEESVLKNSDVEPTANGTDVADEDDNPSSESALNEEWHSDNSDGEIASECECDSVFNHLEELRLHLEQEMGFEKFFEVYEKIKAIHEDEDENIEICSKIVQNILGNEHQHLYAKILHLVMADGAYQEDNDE
# UniProt O75914, sequence (whole entry, looked up): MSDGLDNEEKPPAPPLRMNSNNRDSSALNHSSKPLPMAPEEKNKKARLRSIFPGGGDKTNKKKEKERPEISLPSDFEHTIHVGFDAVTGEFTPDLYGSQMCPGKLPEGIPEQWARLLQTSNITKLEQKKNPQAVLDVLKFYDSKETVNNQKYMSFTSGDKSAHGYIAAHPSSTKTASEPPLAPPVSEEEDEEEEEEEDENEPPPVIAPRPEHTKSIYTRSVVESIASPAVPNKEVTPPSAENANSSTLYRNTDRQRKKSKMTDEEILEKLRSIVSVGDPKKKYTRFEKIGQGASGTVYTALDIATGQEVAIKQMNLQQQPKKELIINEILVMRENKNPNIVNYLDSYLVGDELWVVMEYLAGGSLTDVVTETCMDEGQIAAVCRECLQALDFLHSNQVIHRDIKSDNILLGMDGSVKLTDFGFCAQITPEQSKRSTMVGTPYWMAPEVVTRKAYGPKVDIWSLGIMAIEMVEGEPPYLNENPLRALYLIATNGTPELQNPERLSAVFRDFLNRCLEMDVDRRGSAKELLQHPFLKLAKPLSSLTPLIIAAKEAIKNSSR
# UniProt P11802, sequence (whole entry, looked up): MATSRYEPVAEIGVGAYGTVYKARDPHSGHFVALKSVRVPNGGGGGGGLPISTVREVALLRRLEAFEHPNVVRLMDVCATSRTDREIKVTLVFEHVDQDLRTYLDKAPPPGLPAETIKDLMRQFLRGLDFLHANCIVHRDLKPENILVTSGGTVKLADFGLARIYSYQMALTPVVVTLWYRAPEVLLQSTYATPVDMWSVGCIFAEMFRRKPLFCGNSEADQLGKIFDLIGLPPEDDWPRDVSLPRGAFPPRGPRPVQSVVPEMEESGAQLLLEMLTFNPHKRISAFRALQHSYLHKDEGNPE
# UniProt P35590, sequence (whole entry, looked up): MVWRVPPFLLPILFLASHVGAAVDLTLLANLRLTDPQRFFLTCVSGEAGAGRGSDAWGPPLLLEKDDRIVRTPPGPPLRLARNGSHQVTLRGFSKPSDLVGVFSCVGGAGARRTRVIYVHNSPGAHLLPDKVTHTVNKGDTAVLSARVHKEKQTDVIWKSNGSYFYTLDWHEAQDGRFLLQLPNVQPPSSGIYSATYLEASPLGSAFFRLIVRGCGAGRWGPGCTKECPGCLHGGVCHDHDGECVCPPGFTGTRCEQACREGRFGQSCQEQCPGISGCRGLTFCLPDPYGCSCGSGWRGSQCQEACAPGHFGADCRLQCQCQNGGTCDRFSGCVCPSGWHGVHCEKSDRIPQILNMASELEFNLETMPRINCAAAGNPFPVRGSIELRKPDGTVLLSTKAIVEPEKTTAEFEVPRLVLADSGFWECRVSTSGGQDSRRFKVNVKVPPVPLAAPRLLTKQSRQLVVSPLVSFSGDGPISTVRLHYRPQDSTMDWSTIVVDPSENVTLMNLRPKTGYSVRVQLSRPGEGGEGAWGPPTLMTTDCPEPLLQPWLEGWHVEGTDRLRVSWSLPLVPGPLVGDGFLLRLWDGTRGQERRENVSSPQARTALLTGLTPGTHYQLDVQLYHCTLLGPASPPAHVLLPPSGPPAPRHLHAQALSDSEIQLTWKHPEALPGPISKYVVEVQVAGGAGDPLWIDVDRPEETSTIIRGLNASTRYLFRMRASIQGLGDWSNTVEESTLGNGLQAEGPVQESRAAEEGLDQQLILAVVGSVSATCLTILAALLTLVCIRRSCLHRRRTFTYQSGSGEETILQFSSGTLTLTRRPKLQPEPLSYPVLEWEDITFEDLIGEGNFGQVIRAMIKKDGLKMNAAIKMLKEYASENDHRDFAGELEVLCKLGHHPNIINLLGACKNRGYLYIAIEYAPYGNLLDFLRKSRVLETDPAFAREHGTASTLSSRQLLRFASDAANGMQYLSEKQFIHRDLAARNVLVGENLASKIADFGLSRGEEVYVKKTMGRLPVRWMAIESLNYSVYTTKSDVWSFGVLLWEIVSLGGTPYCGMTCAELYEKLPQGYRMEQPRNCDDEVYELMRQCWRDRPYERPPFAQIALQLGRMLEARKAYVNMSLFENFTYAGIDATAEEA
# UniProt P49674, sequence (whole entry, looked up): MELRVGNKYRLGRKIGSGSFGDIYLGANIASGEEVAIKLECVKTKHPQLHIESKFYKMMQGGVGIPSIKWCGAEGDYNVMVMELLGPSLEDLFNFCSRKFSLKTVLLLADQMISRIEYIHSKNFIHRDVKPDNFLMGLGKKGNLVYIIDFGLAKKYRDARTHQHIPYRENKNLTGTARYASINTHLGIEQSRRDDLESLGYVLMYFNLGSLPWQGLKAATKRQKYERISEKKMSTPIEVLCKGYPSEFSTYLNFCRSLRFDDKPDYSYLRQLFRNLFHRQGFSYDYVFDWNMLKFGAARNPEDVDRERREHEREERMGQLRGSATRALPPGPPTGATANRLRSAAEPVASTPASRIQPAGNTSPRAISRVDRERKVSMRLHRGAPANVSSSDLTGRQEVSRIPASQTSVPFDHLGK

# Set 1
# SMILES: COc1cc(-c2cn(C3CCc4c(F)cccc4N(CC(F)(F)F)C3=O)nn2)ccc1-n1cnc(C)c1 (stereo not drawn)
# Technique: competition with immobilised ligand
# Concentration: 1 µM
target,read-out,remaining binding
"Tyrosine-protein kinase ABL1, phosphorylated (ABL1, Homo sapiens, UniProt P00519, T315I)",cell-free assay,83%
"Activin receptor type-1 (ACVR1, Homo sapiens, UniProt Q04771)",cell-free assay,100%
"Serine/threonine-protein kinase PAK 3 (PAK3, Homo sapiens, UniProt O75914)",cell-free assay,100%
"Serine/threonine-protein kinase pim-3 (PIM3, Homo sapiens, UniProt Q86V86)",cell-free assay,90%
"Ephrin type-A receptor 3 (EPHA3, Homo sapiens, UniProt P29320)",cell-free assay,97%
"Interleukin-1 receptor-associated kinase 4 (IRAK4, Homo sapiens, UniProt Q9NWZ3)",cell-free assay,100%
"Serine/threonine-protein kinase D2 (PRKD2, Homo sapiens, UniProt Q9BZL6)",cell-free assay,100%
"Tyrosine-protein kinase receptor Tie-1 (TIE1, Homo sapiens, UniProt P35590)",cell-free assay,100%
"Dual specificity protein kinase CLK3 (CLK3, Homo sapiens, UniProt P49761)",cell-free assay,83%
"Atypical kinase COQ8B, mitochondrial (COQ8B, Homo sapiens, UniProt Q96D53)",cell-free assay,77%
"Serine/threonine-protein kinase ULK3 (ULK3, Homo sapiens, UniProt Q6PHR2)",cell-free assay,63%
"Serine/threonine-protein kinase RIO2 (RIOK2, Homo sapiens, UniProt Q9BVS4)",cell-free assay,100%
"Peripheral plasma membrane protein CASK (CASK, Homo sapiens, UniProt O14936)",cell-free assay,71%
"Phosphatidylinositol 4,5-bisphosphate 3-kinase catalytic subunit alpha isoform (PIK3CA, Homo sapiens, UniProt P42336)",cell-free assay,94%
"Tyrosine-protein kinase ABL1, phosphorylated (ABL1, Homo sapiens, UniProt P00519, E255K)",binding,100%
"Proto-oncogene tyrosine-protein kinase receptor Ret (RET, Homo sapiens, UniProt P07949, V804L)",cell-free assay,100%
"Serine/threonine-protein kinase NIM1 (NIM1K, Homo sapiens, UniProt Q8IY84)",cell-free assay,78%
"3-phosphoinositide-dependent protein kinase 1 (PDPK1, Homo sapiens, UniProt O15530)",cell-free assay,93%
"Serine/threonine-protein kinase Nek1 (NEK1, Homo sapiens, UniProt Q96PY6)",cell-free assay,100%
"Serine/threonine-protein kinase Nek9 (NEK9, Homo sapiens, UniProt Q8TD19)",cell-free assay,100%
"Phosphorylase b kinase gamma catalytic chain, liver/testis isoform (PHKG2, Homo sapiens, UniProt P15735)",cell-free assay,100%
"Cyclin-dependent kinase 4, with cyclin D1 (CDK4, Homo sapiens, UniProt P11802)",cell-free assay,100%
"Serine/threonine-protein kinase D1 (PRKD1, Homo sapiens, UniProt Q15139)",cell-free assay,100%
"Tyrosine-protein kinase ABL1, non-phosphorylated (ABL1, Homo sapiens, UniProt P00519, Q252H)",cell-free assay,95%
"Phosphatidylinositol 4,5-bisphosphate 3-kinase catalytic subunit alpha isoform (PIK3CA, Homo sapiens, UniProt P42336, C420R)",cell-free assay,75%

# Set 2
# Host: human
# Matrix: microsomes or S9
# Concentration: 2 µM
# Time: 0.5 h
SMILES,remaining compound
COCCN(CC(=O)N1N=C(c2ccccc2F)CC1c1cccs1)C(=O)CC(C)(C)C (stereo not drawn),9%
Cc1nc(-c2ccncc2)nc(NCCCCn2ccccc2=O)c1C,0.263%
Cc1nn(C)c2ncnc(NCc3cc4ccccc4[nH]3)c12,67.1%
Cc1cc(=O)[nH]c(-n2nc(C)cc2NC(=O)C(C)(C)Oc2ccc(Cl)cc2)n1,32.6%
c1ccc(-c2oc3ncn4ncnc4c3c2-c2ccccc2)cc1,95.9%

# Set 3
# Cell line: HaCaT
# Concentration: 100 µM
# Time: 36 h
SMILES,viability [%]
CN(Cc1cnc2nc(N)nc(N)c2n1)c1ccc(C(=O)N[C@@H](CCC(=O)O)C(=O)O)cc1,57.2
CC1=NS(=O)(=O)c2cc(Cl)ccc2N1,91
CCN1CCN(C(=O)N[C@@H](C(=O)N[C@@H]2C(=O)N3[C@@H]2SC(C)(C)[C@@H]3C(=O)O)c2ccccc2)C(=O)C1=O,93
CCN(CC)CCOCCOC(=O)C1(c2ccccc2)CCCC1,69.1
Oc1ccc(O)cc1,8.19
Cc1cc(C#N)cc(C)c1Oc1nc(Nc2ccc(C#N)cc2)nc(N)c1Br,78.9
C[C@H]1COc2c(C3(N)CC3)c(F)cc3c(=O)c(C(=O)O)cn1c23,78.3

# Set 4
# Organism: Sarcocystis neurona
# Read-out: parasite growth
# Concentration: 10 µM
# Time: 96 h
# Setting: first screen
# Reference: untreated
Compound,log2 fold change
CN(C)[C@@H]1C(O)=C(C(N)=O)C(=O)[C@@]2(O)C(O)=C3C(=O)c4c(O)cccc4[C@@](C)(O)[C@H]3[C@H](O)[C@@H]12,-0.21
Cc1ccsc1C(=CCCN1CCC[C@@H](C(=O)O)C1)c1sccc1C,0.08
CC(C)(S)[C@@H](N)C(=O)O,0.38
CN(C)CCc1c[nH]c2ccc(C[C@H]3COC(=O)N3)cc12,-0.06
C#C[C@]1(O)CC[C@H]2[C@@H]3[C@H](C)CC4=C(CCC(=O)C4)[C@H]3CC[C@@]21C,-0.14
CCc1c(C)[nH]c2c1C(=O)C(CN1CCOCC1)CC2 (stereo not drawn),0.21
CO[C@H]1O[C@@H]2O[C@@]3(C)CC[C@H]4[C@H](C)CC[C@@H]([C@H]1C)[C@@]24OO3,-1.7
O=C(O)c1cc(=O)c2c(OCC(O)COc3cccc4oc(C(=O)O)cc(=O)c34)cccc2o1,0.35

# Set 5
# SMILES: COc1cc(C(=O)N2CCC(N3CCN(C)CC3)CC2)ccc1Nc1ncc2c(n1)N(C)c1ccccc1C(=O)N2C
target,assay,system,conditions,inhibition [%]
ZAP70 (human),"probe labelling, KiNativ, measured: activation loop peptide",PBMC lysate (human),"1 µM, with: ADP acyl-phosphate probe",-13.5
BRSK2 (mouse),"probe labelling, KiNativ ATP probe",mouse brain lysate,"1 µM, LYS2 labelled site",10.2
"Mitogen-activated protein kinase kinase kinase 4 (Map3k4, Mus musculus, UniProt O08648)",KiNativ profiling,mouse brain lysate,"0.1 µM, LYS1 site, with: ADP acyl phosphate probe",-5.4
NDR1 (mouse),"probe labelling, KiNativ, measured: DTGHVYAMkILR peptide, LYS1 site",brain tissue lysate (mouse),"0.1 µM, with: ADP acyl-phosphate probe",3.6
mouse CaMK1δ,"probe labelling, KiNativ ADP probe",mouse brain lysate,"0.1 µM, LYS1 site LFAVkCIPK",-10

# Set 6
# Structure (SMILES): Cc1nc(-c2ccccc2)c(-c2ccncc2)o1
# Read-out: enzyme activity
# Mode: inhibitor
# Technique: radiometric
target,IC50 [µM]
"Casein kinase I isoform delta (CSNK1D, Homo sapiens, UniProt P48730)",0.864
"Mitogen-activated protein kinase 11 (MAPK11, Homo sapiens, UniProt Q15759)",> 30
"Casein kinase I isoform epsilon (CSNK1E, Homo sapiens, UniProt P49674)",3.36

# Other studies, line by line
Compound,host,dose,setting,quantity,value
CC(C)n1cnc(-c2ccc(F)cc2)c1-c1ncc(C(=O)Nc2ccc(N3CCN(C)CC3)cc2)[nH]1,IPF patients,60 mg once daily,adverse event,Haemorrhoids incidence,0%

# Excerpt of the above (set 4):
Compound,log2 fold change
CO[C@H]1O[C@@H]2O[C@@]3(C)CC[C@H]4[C@H](C)CC[C@@H]([C@H]1C)[C@@]24OO3,-1.7
C#C[C@]1(O)CC[C@H]2[C@@H]3[C@H](C)CC4=C(CCC(=O)C4)[C@H]3CC[C@@]21C,-0.14
Cc1ccsc1C(=CCCN1CCC[C@@H](C(=O)O)C1)c1sccc1C,0.08
O=C(O)c1cc(=O)c2c(OCC(O)COc3cccc4oc(C(=O)O)cc(=O)c34)cccc2o1,0.35
CCc1c(C)[nH]c2c1C(=O)C(CN1CCOCC1)CC2 (stereo not drawn),0.21
